Measured values gathered from unrelated publications.
Parts stem from different laboratories: compare values within a part only.
Chain of UniProt O96017 (whole entry, looked up): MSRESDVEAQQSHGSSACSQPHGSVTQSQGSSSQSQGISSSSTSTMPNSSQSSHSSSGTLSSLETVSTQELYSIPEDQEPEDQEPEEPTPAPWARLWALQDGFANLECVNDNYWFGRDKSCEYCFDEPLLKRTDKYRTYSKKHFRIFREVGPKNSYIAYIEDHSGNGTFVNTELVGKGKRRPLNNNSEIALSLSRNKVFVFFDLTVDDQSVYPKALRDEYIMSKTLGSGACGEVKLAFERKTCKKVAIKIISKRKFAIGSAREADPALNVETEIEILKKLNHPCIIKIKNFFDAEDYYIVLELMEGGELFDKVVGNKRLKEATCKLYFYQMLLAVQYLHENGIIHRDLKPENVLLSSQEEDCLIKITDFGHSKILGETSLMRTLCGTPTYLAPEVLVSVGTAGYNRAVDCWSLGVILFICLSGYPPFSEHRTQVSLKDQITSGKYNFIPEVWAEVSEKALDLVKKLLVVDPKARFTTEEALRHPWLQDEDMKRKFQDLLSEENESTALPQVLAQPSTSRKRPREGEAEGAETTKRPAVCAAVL
Chain of UniProt Q13557 (whole entry, looked up): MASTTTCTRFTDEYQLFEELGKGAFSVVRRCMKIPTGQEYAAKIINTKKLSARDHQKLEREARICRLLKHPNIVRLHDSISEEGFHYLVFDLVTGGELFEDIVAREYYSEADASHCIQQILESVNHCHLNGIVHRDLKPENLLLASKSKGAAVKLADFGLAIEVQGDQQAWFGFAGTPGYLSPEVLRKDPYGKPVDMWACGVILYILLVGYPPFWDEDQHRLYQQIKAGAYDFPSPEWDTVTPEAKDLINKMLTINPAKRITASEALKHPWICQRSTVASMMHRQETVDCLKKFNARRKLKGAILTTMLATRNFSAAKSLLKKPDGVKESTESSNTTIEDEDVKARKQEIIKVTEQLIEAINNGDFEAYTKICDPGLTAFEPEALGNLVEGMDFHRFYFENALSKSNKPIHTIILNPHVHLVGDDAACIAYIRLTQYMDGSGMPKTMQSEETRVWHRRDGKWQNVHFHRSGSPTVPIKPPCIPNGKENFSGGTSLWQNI
Chain of UniProt Q96RR4 (whole entry, looked up): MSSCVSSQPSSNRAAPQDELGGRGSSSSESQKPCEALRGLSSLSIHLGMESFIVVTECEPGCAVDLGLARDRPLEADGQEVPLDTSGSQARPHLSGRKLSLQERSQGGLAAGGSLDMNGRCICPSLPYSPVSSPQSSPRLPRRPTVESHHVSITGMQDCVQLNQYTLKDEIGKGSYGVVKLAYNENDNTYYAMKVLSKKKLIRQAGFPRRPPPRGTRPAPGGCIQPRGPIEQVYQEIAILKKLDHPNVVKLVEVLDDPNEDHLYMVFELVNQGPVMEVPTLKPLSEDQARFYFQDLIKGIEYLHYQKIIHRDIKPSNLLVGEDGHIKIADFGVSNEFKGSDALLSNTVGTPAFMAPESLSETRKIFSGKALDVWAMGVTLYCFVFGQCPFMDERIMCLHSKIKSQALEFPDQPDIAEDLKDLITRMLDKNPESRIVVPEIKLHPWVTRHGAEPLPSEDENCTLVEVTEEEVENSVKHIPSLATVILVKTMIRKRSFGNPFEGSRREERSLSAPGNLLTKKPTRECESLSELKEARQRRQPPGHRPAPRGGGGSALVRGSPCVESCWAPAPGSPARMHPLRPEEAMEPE
Chain of UniProt O95747 (whole entry, looked up): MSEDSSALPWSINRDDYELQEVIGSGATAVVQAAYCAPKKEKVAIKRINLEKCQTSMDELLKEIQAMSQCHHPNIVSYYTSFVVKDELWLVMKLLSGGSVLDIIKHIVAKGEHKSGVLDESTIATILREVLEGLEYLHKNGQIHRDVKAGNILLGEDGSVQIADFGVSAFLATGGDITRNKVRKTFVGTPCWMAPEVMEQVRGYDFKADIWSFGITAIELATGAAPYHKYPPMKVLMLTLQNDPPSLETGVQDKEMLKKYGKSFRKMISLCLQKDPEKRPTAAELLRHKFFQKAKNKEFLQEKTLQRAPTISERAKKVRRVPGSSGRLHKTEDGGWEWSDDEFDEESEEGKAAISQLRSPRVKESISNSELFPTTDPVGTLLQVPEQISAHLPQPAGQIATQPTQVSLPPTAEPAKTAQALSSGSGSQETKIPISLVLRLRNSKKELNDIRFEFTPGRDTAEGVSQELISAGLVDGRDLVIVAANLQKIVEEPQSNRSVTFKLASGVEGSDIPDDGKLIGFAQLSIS
Chain of UniProt O00444 (whole entry, looked up): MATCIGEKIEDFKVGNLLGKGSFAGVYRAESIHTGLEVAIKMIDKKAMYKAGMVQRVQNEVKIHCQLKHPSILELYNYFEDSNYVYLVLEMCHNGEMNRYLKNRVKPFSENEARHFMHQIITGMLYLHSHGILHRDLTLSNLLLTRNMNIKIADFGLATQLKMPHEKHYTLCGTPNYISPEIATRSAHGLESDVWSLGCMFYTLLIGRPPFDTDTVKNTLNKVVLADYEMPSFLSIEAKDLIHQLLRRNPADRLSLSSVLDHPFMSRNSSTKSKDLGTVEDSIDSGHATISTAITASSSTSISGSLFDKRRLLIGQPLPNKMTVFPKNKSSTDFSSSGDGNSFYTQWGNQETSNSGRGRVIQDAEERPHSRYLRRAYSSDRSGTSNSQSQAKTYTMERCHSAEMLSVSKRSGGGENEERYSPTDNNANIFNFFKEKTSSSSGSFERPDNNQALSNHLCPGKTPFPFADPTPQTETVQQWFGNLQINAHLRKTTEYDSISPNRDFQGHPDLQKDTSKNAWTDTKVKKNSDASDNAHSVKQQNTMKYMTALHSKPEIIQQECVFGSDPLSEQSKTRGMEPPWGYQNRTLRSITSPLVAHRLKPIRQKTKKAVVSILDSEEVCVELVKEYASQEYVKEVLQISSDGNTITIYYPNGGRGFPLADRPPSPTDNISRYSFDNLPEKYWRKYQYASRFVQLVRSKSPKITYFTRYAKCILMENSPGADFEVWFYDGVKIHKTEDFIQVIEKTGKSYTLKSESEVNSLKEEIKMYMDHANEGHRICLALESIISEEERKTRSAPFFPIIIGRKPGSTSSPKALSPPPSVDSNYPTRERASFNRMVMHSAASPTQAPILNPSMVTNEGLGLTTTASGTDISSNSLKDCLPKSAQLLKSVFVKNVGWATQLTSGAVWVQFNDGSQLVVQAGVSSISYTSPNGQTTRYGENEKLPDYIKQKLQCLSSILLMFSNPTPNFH
Chain of UniProt Q15831 (whole entry, looked up): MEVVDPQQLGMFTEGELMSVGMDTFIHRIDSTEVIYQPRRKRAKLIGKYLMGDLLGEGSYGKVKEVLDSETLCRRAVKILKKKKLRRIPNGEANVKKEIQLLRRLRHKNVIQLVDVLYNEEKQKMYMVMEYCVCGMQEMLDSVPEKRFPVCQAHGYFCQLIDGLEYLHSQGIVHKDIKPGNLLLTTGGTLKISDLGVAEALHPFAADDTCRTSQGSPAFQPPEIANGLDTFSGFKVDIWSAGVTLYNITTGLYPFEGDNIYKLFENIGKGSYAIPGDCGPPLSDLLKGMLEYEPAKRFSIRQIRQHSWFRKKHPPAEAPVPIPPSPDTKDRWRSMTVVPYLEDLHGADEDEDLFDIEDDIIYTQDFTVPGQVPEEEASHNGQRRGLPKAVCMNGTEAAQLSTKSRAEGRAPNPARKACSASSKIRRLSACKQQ
Chain of UniProt O14920 (whole entry, looked up): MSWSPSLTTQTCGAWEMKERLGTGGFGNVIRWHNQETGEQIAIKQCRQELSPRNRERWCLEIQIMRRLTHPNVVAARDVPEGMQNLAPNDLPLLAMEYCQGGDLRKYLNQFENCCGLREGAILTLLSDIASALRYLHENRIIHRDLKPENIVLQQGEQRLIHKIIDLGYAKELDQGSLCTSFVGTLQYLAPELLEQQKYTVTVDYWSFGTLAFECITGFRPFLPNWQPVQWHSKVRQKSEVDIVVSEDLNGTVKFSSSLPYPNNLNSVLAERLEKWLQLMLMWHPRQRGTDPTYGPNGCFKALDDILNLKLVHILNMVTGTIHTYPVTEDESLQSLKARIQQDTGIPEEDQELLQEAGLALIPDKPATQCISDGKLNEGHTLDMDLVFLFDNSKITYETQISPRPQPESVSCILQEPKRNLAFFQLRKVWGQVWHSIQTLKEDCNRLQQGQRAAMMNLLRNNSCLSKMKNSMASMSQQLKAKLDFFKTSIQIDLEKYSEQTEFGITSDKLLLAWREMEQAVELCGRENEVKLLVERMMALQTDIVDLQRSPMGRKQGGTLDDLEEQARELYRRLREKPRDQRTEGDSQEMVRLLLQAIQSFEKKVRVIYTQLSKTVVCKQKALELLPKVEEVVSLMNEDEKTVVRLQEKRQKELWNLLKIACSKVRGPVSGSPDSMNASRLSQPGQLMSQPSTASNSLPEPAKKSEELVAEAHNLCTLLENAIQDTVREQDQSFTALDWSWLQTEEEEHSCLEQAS
Chain of UniProt P37173 (whole entry, looked up): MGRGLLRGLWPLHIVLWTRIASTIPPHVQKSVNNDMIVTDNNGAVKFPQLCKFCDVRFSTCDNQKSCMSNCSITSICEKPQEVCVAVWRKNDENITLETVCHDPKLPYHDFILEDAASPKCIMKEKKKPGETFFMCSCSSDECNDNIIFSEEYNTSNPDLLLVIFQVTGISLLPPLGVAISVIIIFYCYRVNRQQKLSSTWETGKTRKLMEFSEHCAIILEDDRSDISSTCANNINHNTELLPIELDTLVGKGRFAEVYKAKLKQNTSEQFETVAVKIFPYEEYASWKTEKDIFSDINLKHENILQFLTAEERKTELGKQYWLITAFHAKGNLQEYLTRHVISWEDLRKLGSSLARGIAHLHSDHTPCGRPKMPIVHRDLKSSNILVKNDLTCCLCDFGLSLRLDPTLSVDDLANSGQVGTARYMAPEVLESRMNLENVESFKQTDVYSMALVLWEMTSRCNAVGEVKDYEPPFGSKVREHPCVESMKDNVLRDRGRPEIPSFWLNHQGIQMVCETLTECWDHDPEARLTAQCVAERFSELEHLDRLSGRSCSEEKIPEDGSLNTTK

Set 1
Host: human
Medium: microsomes or S9
Tested at: 2 µM
Time: 0.5 h
Endpoint: remaining compound
COc1cc(=O)n2c(c1C(=O)NC1CCCCCC1)CCCC2: 58.9%
O=c1c2ccccc2nc(-c2ccco2)n1-c1cccc2ccccc12: 90.9%
Cc1nn2c(=O)c(CCC(=O)NC(C)(C)c3noc(C(C)(C)C)n3)c(C)nc2[nH]1: 85.3%
O=C1CC2CS(=O)(=O)CC2N1C1CCCCC1 (centres unmarked): 93.8%
Cc1ccc2ncc(-c3ccc(CN(C)C)cn3)cc2c1: 85.9%
O=C1CCCC1CC/C=C/S(=O)(=O)c1ccccc1 (centres unmarked): 40.8%
COC(=O)Cc1cc(=O)n2nc(C)c(-c3ccc(F)cc3)c2[nH]1: 90.3%
O=c1c(C2CCCCC2)c(O)nc2n1CC(O)CS2 (centres unmarked): 62.6%

Set 2
SMILES: CC(C)(C)c1nc2c3cc[nH]c(=O)c3c3cc(F)ccc3c2[nH]1
Read-out: enzyme activity
Mode: inhibitor
Tested at: 0.5 µM
Reference: control
Endpoint: remaining activity
Serine/threonine-protein kinase OSR1 (OXSR1, Homo sapiens, UniProt O95747): 100%
Calcium/calmodulin-dependent protein kinase type II subunit delta (CAMK2D, Homo sapiens, UniProt Q13557): 59.4%
cAMP-dependent protein kinase catalytic subunit alpha (PRKACA, Homo sapiens, UniProt P17612): 97.9%
Tyrosine-protein kinase Lyn, isoform B (LYN, Homo sapiens, UniProt P07948): 95.9%
Serine/threonine-protein kinase Chk2 (CHEK2, Homo sapiens, UniProt O96017): 0.717%
Calcium/calmodulin-dependent protein kinase kinase 2 (CAMKK2, Homo sapiens, UniProt Q96RR4): 69.4%
G protein-coupled receptor kinase 3 (GRK3, Homo sapiens, UniProt P35626): 104%
Death-associated protein kinase 1 (DAPK1, Homo sapiens, UniProt P53355): 3.03%
Protein kinase C beta type, isoform beta-I (PRKCB, Homo sapiens, UniProt P05771): 91.5%
cGMP-dependent protein kinase 1, isoform beta (PRKG1, Homo sapiens, UniProt Q13976): 52.3%
TGF-beta receptor type-2 (TGFBR2, Homo sapiens, UniProt P37173): 58.2%
Mitogen-activated protein kinase kinase kinase 3 (MAP3K3, Homo sapiens, UniProt Q99759): 61.1%
Mitogen-activated protein kinase 9 (MAPK9, Homo sapiens, UniProt P45984): 31.1%
Protein kinase C alpha type (PRKCA, Homo sapiens, UniProt P17252): 65.6%
Serine/threonine-protein kinase STK11 (STK11, Homo sapiens, UniProt Q15831): 58.4%
Serine/threonine-protein kinase 10 (STK10, Homo sapiens, UniProt O94804): 72.6%
Death-associated protein kinase 2 (DAPK2, Homo sapiens, UniProt Q9UIK4): 18%
Inhibitor of nuclear factor kappa-B kinase subunit epsilon (IKBKE, Homo sapiens, UniProt Q14164): 25.4%
Inhibitor of nuclear factor kappa-B kinase subunit beta (IKBKB, Homo sapiens, UniProt O14920): 52.1%
Cyclin-dependent kinase 4, with cyclin D1 (CDK4, Homo sapiens, UniProt P11802): 85.6%
STE20/SPS1-related proline-alanine-rich protein kinase (STK39, Homo sapiens, UniProt Q9UEW8): 93.8%

Set 3
Organism: Sarcocystis neurona
Read-out: parasite growth
Tested at: 10 µM
Time: 96 h
Notes: secondary screen
Endpoint: inhibition
CC(=O)OCC(=O)[C@@]1(O)CC[C@H]2[C@@H]3CCC4=CC(=O)C=C[C@]4(C)[C@H]3[C@@H](O)C[C@@]21C: 4.7%
CN(C)CCC(c1ccc(Cl)cc1)c1ccccn1 (centres unmarked): -12.6%
Nc1ccn([C@@H]2CS[C@H](CO)O2)c(=O)n1: -25.2%
CO[C@H]1/C=C/O[C@@]2(C)Oc3c(C)c(O)c4c(O)c(c(/C=N/N5CCN(C6CCCC6)CC5)c(O)c4c3C2=O)NC(=O)/C(C)=C\C=C\[C@H](C)[C@H](O)[C@@H](C)[C@@H](O)[C@@H](C)[C@H](OC(C)=O)[C@@H]1C: -22%
COc1cc(C(=O)NS(=O)(=O)c2ccccc2C)ccc1Cc1cn(C)c2ccc(NC(=O)OC3CCCC3)cc12: -37.7%
CCOC(=O)C1=C(COCCN)NC(C)=C(C(=O)OC)C1c1ccccc1Cl (centres unmarked): -5.3%
Nc1nc2c(ncn2CCC(CO)CO)c(=O)[nH]1: -33.7%
CC(=O)CCCCn1c(=O)c2c(ncn2C)n(C)c1=O: -7.7%
CN(C)CCCSc1ccccc1NC(=O)/C=C/c1ccccc1: -36.4%

Set 4
SMILES: Cc1c(NC(=O)c2cc(C(N)=O)nc3cc(F)ccc23)c(C(F)(F)F)nn1Cc1ccc(C#N)cc1
Tested at: 1 µM
Endpoint: remaining binding
Tyrosine-protein kinase Lck (LCK, Homo sapiens, UniProt P06239); binding, competition with immobilised ligand: 98%
Serine/threonine-protein kinase 32A (STK32A, Homo sapiens, UniProt Q8WU08); binding, competition with immobilised ligand: 89%
Atypical kinase COQ8A, mitochondrial (COQ8A, Homo sapiens, UniProt Q8NI60); cell-free assay, competition with immobilised ligand: 82%
Mitogen-activated protein kinase 8 (MAPK8, Homo sapiens, UniProt P45983); cell-free assay, competition with immobilised ligand: 80%
Tyrosine-protein kinase FRK (FRK, Homo sapiens, UniProt P42685); cell-free assay, competition with immobilised ligand: 100%
Serine/threonine-protein kinase RIO1 (RIOK1, Homo sapiens, UniProt Q9BRS2); cell-free assay, competition with immobilised ligand: 93%
Serine/threonine-protein kinase Chk2 (CHEK2, Homo sapiens, UniProt O96017); cell-free assay, competition with immobilised ligand: 73%
Serine/threonine-protein kinase ULK2 (ULK2, Homo sapiens, UniProt Q8IYT8); cell-free assay, competition with immobilised ligand: 81%
Tyrosine-protein kinase Fgr (FGR, Homo sapiens, UniProt P09769); cell-free assay, competition with immobilised ligand: 93%
Calcium/calmodulin-dependent protein kinase type 1G (CAMK1G, Homo sapiens, UniProt Q96NX5); cell-free assay, competition with immobilised ligand: 75%
Fibroblast growth factor receptor 3 (FGFR3, Homo sapiens, UniProt P22607); cell-free assay, competition with immobilised ligand: 99%
5'-AMP-activated protein kinase catalytic subunit alpha-1 (PRKAA1, Homo sapiens, UniProt Q13131); cell-free assay, competition with immobilised ligand: 86%
STE20-like serine/threonine-protein kinase (SLK, Homo sapiens, UniProt Q9H2G2); cell-free assay, competition with immobilised ligand: 100%
Serine/threonine-protein kinase PLK4 (PLK4, Homo sapiens, UniProt O00444); cell-free assay, competition with immobilised ligand: 100%
Tyrosine-protein kinase ABL1, phosphorylated (ABL1, Homo sapiens, UniProt P00519, H396P); cell-free assay, competition with immobilised ligand: 81%
Protein kinase C epsilon type (PRKCE, Homo sapiens, UniProt Q02156); cell-free assay, competition with immobilised ligand: 74%
Platelet-derived growth factor receptor alpha (PDGFRA, Homo sapiens, UniProt P16234); cell-free assay, competition with immobilised ligand: 73%
Serine/threonine-protein kinase MRCK gamma (CDC42BPG, Homo sapiens, UniProt Q6DT37); competition binding: 91%

For quick reference, copied from above (set 4):
Serine/threonine-protein kinase RIO1 (RIOK1, Homo sapiens, UniProt Q9BRS2); cell-free assay, competition with immobilised ligand: 93%
Protein kinase C epsilon type (PRKCE, Homo sapiens, UniProt Q02156); cell-free assay, competition with immobilised ligand: 74%
Serine/threonine-protein kinase PLK4 (PLK4, Homo sapiens, UniProt O00444); cell-free assay, competition with immobilised ligand: 100%
